Experimental data from different studies.
“And” joins repeats or separate records; there may be more than shown. ± gives the spread as reported.
KCNH2: Voltage-gated inwardly rectifying potassium channel KCNH2 (KCNH2, Homo sapiens, UniProt Q12809)
CYP2C9: Cytochrome P450 2C9 (CYP2C9, Homo sapiens, UniProt P11712)
CYP3A4: Cytochrome P450 3A4 (CYP3A4, Homo sapiens, UniProt P08684)
ABCB1: ATP-dependent translocase ABCB1 (ABCB1, Homo sapiens, UniProt P08183)
ALDH1A2: Retinal dehydrogenase 2 (ALDH1A2, Homo sapiens, UniProt O94788)
CYP2D6: Cytochrome P450 2D6 (CYP2D6, Homo sapiens, UniProt P10635)
AHR: Aryl hydrocarbon receptor (AHR, Homo sapiens, UniProt P35869)

Sequences of proteins named here, by UniProt entry; tags and fusion partners are left off.
UniProt Q12809, whole entry: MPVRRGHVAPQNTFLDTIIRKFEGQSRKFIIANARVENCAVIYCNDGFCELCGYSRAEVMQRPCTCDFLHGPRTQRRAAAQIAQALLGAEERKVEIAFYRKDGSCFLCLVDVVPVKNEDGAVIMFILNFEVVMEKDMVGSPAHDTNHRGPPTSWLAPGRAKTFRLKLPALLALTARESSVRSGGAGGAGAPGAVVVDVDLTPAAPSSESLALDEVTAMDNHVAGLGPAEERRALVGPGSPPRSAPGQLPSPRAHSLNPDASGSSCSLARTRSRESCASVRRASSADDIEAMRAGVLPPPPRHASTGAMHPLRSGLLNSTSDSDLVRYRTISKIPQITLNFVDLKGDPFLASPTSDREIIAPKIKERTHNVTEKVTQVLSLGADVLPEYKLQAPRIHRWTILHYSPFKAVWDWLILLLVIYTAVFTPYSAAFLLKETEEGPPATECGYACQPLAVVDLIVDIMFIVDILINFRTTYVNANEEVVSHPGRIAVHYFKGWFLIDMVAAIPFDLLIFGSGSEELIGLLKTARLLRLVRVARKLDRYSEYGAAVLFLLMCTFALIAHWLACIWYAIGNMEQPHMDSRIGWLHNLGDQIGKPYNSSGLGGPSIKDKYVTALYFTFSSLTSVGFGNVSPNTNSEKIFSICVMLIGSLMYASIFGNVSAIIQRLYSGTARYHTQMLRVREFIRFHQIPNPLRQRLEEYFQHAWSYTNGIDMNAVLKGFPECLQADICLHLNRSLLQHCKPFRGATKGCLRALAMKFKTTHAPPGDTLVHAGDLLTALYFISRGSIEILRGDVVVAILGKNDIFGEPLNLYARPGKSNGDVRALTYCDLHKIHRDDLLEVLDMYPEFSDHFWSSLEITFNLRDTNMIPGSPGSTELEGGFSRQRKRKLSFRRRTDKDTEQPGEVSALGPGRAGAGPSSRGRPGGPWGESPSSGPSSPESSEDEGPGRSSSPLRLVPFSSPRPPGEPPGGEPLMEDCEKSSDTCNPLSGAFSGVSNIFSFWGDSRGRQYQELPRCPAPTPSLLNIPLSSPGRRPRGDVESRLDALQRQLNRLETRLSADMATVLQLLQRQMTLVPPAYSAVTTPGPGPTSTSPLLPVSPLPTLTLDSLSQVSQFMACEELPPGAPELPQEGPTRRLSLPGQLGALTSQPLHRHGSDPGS
UniProt P11712, whole entry: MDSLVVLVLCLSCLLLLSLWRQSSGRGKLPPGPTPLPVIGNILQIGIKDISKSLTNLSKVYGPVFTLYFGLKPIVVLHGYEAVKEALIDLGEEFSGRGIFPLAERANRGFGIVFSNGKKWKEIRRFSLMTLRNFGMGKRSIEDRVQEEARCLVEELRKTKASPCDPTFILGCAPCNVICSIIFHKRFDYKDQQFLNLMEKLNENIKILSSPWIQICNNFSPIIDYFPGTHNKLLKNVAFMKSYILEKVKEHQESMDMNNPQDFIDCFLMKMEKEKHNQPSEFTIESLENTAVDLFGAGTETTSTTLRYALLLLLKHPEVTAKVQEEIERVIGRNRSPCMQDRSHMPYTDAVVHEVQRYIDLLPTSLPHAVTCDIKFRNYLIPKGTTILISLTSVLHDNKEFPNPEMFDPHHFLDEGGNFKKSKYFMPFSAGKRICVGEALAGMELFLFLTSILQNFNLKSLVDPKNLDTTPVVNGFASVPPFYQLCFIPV
UniProt P08684, whole entry: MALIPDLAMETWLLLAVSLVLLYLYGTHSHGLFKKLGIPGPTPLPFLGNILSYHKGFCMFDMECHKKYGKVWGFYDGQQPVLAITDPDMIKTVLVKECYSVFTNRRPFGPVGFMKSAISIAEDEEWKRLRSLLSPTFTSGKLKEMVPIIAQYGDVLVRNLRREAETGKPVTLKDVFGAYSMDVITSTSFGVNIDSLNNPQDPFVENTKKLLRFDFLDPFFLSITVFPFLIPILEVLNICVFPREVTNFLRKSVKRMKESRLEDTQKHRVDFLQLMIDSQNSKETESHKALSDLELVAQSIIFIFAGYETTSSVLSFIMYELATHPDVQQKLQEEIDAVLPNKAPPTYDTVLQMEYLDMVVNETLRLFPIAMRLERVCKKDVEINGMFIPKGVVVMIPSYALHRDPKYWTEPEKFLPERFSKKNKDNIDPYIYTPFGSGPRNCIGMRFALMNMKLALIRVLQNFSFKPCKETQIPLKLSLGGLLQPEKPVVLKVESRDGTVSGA
UniProt P08183, whole entry: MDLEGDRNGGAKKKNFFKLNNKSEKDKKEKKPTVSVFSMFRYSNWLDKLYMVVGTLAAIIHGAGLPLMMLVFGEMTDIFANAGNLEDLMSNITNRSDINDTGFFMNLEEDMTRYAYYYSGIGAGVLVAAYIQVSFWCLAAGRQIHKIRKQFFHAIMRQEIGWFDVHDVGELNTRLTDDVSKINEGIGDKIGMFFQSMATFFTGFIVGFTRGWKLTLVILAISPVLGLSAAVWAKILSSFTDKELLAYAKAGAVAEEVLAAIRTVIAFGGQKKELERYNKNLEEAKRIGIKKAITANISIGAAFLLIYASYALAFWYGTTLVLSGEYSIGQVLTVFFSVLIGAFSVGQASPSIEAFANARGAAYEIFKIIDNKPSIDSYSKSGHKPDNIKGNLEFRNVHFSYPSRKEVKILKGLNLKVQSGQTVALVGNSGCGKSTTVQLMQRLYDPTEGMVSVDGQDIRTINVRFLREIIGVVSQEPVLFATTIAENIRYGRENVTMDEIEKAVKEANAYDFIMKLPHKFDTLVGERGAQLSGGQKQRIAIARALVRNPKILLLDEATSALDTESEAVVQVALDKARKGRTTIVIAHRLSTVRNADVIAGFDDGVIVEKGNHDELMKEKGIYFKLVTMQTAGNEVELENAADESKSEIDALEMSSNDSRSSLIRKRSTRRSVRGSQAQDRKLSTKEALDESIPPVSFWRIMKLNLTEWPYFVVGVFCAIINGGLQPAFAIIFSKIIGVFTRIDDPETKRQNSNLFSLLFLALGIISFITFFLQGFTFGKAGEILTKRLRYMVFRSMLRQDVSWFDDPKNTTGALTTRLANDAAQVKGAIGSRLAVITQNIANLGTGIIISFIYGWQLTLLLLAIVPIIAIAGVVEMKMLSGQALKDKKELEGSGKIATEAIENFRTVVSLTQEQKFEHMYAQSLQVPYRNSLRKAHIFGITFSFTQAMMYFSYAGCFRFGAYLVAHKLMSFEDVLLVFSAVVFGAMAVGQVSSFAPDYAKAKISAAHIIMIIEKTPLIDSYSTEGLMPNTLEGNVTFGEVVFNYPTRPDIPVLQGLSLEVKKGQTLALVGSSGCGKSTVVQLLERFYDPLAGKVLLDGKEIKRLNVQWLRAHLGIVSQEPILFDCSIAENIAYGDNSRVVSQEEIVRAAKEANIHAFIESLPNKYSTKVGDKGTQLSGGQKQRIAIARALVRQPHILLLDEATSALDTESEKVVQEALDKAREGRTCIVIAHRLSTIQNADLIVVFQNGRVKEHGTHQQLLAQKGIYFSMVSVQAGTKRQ
UniProt O94788, whole entry: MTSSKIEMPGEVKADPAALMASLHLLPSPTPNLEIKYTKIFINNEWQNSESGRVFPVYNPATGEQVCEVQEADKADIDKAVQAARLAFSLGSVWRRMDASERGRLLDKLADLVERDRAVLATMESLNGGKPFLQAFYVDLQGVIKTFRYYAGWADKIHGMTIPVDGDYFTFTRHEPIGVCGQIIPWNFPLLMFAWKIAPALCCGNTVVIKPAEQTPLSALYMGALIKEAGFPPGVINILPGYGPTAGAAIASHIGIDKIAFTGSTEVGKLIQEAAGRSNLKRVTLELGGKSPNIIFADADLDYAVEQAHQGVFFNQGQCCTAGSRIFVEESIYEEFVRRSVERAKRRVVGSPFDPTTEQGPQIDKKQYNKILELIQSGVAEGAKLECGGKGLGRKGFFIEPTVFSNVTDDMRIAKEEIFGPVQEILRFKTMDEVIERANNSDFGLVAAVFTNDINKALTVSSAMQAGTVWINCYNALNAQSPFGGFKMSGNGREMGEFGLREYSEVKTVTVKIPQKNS
UniProt P10635, whole entry: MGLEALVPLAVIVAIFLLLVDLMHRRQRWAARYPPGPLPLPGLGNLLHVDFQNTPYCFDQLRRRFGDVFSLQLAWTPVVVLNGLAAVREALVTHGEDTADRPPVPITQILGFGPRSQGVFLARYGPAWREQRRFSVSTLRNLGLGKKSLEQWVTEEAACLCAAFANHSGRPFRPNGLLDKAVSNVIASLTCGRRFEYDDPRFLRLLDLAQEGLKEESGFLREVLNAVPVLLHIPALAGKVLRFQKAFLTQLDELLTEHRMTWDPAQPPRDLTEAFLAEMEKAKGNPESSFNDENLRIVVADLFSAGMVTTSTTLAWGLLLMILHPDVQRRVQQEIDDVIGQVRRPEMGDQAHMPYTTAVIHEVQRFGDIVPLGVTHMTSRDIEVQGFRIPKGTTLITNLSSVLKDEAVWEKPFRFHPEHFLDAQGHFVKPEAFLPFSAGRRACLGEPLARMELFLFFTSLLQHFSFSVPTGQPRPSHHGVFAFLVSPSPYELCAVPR
UniProt P35869, whole entry, looked up: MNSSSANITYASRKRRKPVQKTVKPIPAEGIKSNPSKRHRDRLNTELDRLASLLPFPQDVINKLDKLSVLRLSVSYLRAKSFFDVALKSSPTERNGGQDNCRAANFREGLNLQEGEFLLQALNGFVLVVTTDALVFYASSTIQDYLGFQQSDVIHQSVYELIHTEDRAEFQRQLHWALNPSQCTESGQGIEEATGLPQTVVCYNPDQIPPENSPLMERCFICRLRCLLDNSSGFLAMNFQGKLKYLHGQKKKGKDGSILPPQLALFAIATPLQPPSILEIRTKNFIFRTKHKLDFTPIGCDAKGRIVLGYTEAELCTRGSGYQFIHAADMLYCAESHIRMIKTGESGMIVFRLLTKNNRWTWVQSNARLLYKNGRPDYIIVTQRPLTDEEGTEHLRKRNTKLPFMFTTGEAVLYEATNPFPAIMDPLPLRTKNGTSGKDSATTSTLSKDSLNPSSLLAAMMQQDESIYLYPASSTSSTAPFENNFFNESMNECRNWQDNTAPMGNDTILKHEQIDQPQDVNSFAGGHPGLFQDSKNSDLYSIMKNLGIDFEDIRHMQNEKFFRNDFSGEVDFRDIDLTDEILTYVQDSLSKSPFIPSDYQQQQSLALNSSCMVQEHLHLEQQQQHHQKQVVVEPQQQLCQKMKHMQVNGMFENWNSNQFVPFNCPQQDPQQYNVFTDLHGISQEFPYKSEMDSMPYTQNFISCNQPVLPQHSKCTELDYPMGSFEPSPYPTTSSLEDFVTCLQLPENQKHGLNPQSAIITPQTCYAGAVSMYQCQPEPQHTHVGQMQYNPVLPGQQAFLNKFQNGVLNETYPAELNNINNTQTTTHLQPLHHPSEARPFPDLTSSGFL
UniProt P33261, whole entry: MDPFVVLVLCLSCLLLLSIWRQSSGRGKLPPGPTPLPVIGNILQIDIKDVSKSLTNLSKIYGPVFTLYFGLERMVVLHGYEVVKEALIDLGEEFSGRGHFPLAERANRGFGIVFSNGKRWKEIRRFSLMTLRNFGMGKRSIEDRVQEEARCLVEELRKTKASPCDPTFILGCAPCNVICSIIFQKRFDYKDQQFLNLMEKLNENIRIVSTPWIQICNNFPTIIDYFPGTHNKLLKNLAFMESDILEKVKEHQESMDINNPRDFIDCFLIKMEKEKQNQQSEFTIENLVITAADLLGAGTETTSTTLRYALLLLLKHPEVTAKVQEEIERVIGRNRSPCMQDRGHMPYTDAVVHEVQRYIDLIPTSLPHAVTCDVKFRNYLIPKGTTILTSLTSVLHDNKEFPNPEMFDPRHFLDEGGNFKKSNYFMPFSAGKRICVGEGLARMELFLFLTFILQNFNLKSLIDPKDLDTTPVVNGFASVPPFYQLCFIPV
UniProt P20813, whole entry: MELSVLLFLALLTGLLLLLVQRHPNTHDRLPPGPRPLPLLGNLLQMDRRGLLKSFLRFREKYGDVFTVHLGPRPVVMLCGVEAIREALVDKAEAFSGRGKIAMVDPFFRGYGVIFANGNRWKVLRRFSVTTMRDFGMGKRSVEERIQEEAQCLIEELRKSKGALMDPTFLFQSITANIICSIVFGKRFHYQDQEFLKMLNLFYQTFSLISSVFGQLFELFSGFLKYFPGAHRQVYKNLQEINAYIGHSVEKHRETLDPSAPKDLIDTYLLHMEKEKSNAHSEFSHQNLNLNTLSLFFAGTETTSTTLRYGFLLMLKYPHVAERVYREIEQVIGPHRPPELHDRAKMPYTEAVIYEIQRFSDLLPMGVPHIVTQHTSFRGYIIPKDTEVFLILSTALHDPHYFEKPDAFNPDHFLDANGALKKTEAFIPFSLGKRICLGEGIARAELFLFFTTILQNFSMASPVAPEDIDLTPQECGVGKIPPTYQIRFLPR

With CN(C)c1ccc2c3c(cccc13)C(=O)N(CCN1CCN(CCCCN3C(=O)CN(/N=C/c4ccc(-c5ccc(Cl)cc5)o4)C3=O)CC1)C2=O the Ki was 123 nM (KCNH2).
COc1ccc(NC(=O)CN2CCCN(S(=O)(=O)c3ccc(C)cc3)CC2)c(OC)c1 has an IC50 of 2300 nM (CYP2C9; enzyme activity, inhibitor).
Under inhibition, O=C(N[C@H](Cc1ccccc1)C(=O)O)c1sc2cc(F)ccc2c1Cl is recorded as “no effect” (Cytochrome P450 2C19 (CYP2C19, Homo sapiens, UniProt P33261); enzyme activity; concentration not given).
With COc1ccc(S(=O)(=O)N2CCCN(CC(=O)Nc3ccc(OC)cc3OC)CC2)cc1 the IC50 was 4200 nM (CYP3A4; enzyme activity, inhibitor).
For CN(C)c1ccc2c(CCCOc3ccccc3)c3ccc(=[N+](C)C)cc-3sc2c1, the Km was 3 µM and 3.2 µM (ABCB1; ATPase activity, substrate; half-maximal ATPase stimulation).
With COc1ccc(CC(=O)OCc2ccc(-n3cccn3)cc2)cc1F the inhibition was 13.4% (CYP3A4; inhibitor; 10 µM).
With N=c1ccc2c(-c3ccccc3)c3ccc(N)cc3sc-2c1 the Km was 32 ± 3 µM (ABCB1; ATPase activity, substrate; half-maximal ATPase stimulation).
OCC1Nc2ccc(Cl)cc2C(C#CC2CC2)(C(F)(F)F)O1 (stereo not shown) gave a Km of 1.4 ± 0.76 µM (Cytochrome P450 2B6 (CYP2B6, Homo sapiens, UniProt P20813); product formation, substrate, cDNA-expressed enzyme).
For CCCn1c(NCc2cccc(Cl)c2O)nc2ccccc21, the EC50 was 240 ± 57 nM (ALDH1A2; enzyme activity, inhibitor, NADH absorbance 340 nm; pH 7.5, 25 °C, 200 µM NAD+, added: 100 µM propionaldehyde).
The IC50 of CC(C)c1ccc(NC(=O)C2CC3CCC2C3)cc1 (stereo not shown) is reported as 27000 nM (CYP2C9; enzyme activity, inhibitor).
COc1ccc(NC(=O)CN2CCCN(S(=O)(=O)c3cccs3)CC2)c(OC)c1 gave an IC50 of 7400 nM (CYP3A4; enzyme activity, inhibitor).
Cc1cccc(NC(=O)C2CC3CCC2C3)c1C (stereo not shown) has an IC50 of 22200 nM (CYP2D6; enzyme activity, inhibitor).
O=C(OC1CCCCC1)c1cccc(C(=O)c2c[nH]c3ccccc23)n1 has an EC50 of 1200 nM (AHR; reporter gene, agonist; HepG2 transfected XRE-luciferase; 4.5 h).
With CC(=O)Nc1ccc2c3c(cccc13)C(=O)N(CCCCCCN1CCN(CCCCN3C(=O)CN(/N=C/c4ccc(-c5ccc(Cl)cc5)o4)C3=O)CC1)C2=O the Ki was 698 nM (KCNH2).
The EC50 of COc1cnc(C(=O)c2c[nH]c3ccccc23)cn1 is reported as 7020 nM (AHR; reporter gene, agonist; HepG2 transfected XRE-luciferase; 4.5 h).
CC(=O)Nc1ccc2c3c(cccc13)C(=O)N(CCCCN1CCN(CCCCN3C(=O)CN(/N=C/c4ccc(-c5ccc(Cl)cc5)o4)C3=O)CC1)C2=O has a fluorescence enhancement of roughly 10 fold (KCNH2; probe binding; 10 µM; relative to: probe without hERG).
For Cc1n[nH]c(C)c1CCOC(=O)c1cccc2c1oc(=O)n2C, the inhibition was 10.1% (CYP2C9; inhibitor; 10 µM).
CNCCNC(=O)c1cc2c([nH]c3ccccc32)c(-c2cc(Cl)c(Cl)c(Cl)c2)n1 gave an IC50 of 1600 nM (KCNH2; ion current, inhibitor).
For Cc1ccc(NC(=O)C2CC3CCC2C3)c(C)c1 (stereo not shown), the IC50 was greater than 30000 nM (CYP2D6; enzyme activity, inhibitor).
C[N+](C)=c1ccc2c(-c3ccccc3)c3ccc(N)cc3sc-2c1 gave a Vmax of 7.5 ± 1.5 fold (ABCB1; ATPase activity, activator; sheep brain phosphatidylethanolamine; 30 min, 37 °C; relative to: basal activity).
With O=C1CN(/N=C/c2ccc(-c3ccc(Cl)cc3)o2)C(=O)N1CCCCN1CCN(CCCCN2C(=O)c3cccc4cccc(c34)C2=O)CC1 the Ki was 130 nM (KCNH2).
Cc1ncc(CCc2ccc3c(c2)c(=O)c(C(N)=O)cn3-c2ccc(F)cc2)cn1 gave an efflux ratio of 44 (ABCB1; MDCK-MDR1; relative to: B-A over A-B).
The activity of COc1ccc(C(=O)c2c[nH]c3ccccc23)cc1 is reported as 8% (AHR; reporter gene, agonist; concentration not given, unsaturated curve; relative to: ITE 10 µM).
With CNCCNC(=O)c1cc2c([nH]c3c(C)cccc32)c(-c2ccc(Cl)c(Cl)c2)n1 the IC50 was 2040 nM (KCNH2; ion current, inhibitor).
The IC50 of Cc1ccc(NC(=O)C2CC3CCC2C3)cc1 (stereo not shown) is reported as greater than 30000 nM (CYP2D6; enzyme activity, inhibitor).
CCCn1c(NCc2cccc(OC)c2O)nc2ccccc21 has an EC50 of 9500 ± 890 nM (ALDH1A2; enzyme activity, inhibitor, NADH absorbance 340 nm; pH 7.5, 25 °C, 200 µM NAD+, added: 100 µM propionaldehyde).
COc1cccc(C(=O)c2c[nH]c3ccccc23)n1 has an EC50 of 120 nM (AHR; reporter gene, agonist; HepG2 transfected XRE-luciferase; 4.5 h).
The IC50 of COc1ccc(NC(=O)CN2CCCN(S(=O)(=O)c3ccccc3)CC2)c(OC)c1 is reported as 2900 nM (CYP2C9; enzyme activity, inhibitor).
